# Experimental data collected from several papers.
# Lines come from different studies, so protocols differ. ± marks the error that the study gave.
# Route: oral
SMILES,technique,host,matrix,dose,time,setting,AUC(0-t) [ng·h/mL]
CC(C)=CCC[C@](C)(O[C@@H]1O[C@H](CO)[C@@H](O)[C@H](O)[C@H]1O)[C@H]1CC[C@]2(C)[C@@H]1[C@H](O)C[C@@H]1[C@@]3(C)CC[C@H](O[C@@H]4O[C@H](CO)[C@@H](O)[C@H](O)[C@H]4O[C@@H]4O[C@H](CO)[C@@H](O)[C@H](O)[C@H]4O)C(C)(C)[C@@H]3CC[C@]12C,LC-MS/MS,healthy male volunteers,serum,3 g fermented red ginseng,,,168 ± 75
NC(=O)c1cnc2[nH]ccc2c1N[C@@H]1[C@@H]2CC3C[C@H]1C[C@@](O)(C3)C2,,healthy Japanese men,plasma,20 mg,,single dose fasted,256
CNC(=O)c1ccc(-c2cnc3ncc(Cc4ccc5ncccc5c4)n3n2)cc1F,,mild hepatic impairment,,200 mg,,mean,4810
Cc1[nH]c(/C=C2\C(=O)Nc3ccccc32)c(C)c1CCC(=O)O,,Japanese patients,plasma,1200 mg/m^2,day 29,,25800 ± 2400
CC(C)=CCC[C@](C)(O[C@@H]1O[C@H](CO)[C@@H](O)[C@H](O)[C@H]1O)[C@H]1CC[C@]2(C)[C@@H]1[C@H](O)C[C@@H]1[C@@]3(C)CC[C@H](O[C@@H]4O[C@H](CO)[C@@H](O)[C@H](O)[C@H]4O)C(C)(C)[C@@H]3CC[C@]12C,LC-MS/MS,healthy volunteers,serum,3 g red ginseng,,,4.33 ± 3.25
Cc1nc(-c2ccc(OCC(C)C)c(C#N)c2)sc1C(=O)O,,healthy Chinese adult volunteers,plasma,80 mg single dose,,fed,14000 ± 4000
Cc1ccc(NC(=O)c2ccc(CN3CCN(C)CC3)cc2)cc1Nc1nccc(-c2cncc(-c3oncc3C)c2)n1,,Parkinson's disease patients,plasma,50.0 mg once daily,day 1,"7-day dosing, mean",19300
O=C(c1cc(Cl)c(O)c(Cl)c1)N1CS(=O)(=O)c2ccccc21,,"healthy Chinese adults, fasted",plasma,1 mg single dose,,,1300 ± 268

# Some of these lines once more:
SMILES,technique,host,matrix,dose,time,setting,AUC(0-t) [ng·h/mL]
CNC(=O)c1ccc(-c2cnc3ncc(Cc4ccc5ncccc5c4)n3n2)cc1F,,mild hepatic impairment,,200 mg,,mean,4810
